Published values collected from several papers.
Protocols differ between the studies behind these lines. Values joined by “and” are separate records of one study, mostly repeats; a detail may differ. ± marks the error that the study gave.
PARP1: Poly [ADP-ribose] polymerase 1 (PARP1, Homo sapiens, UniProt P09874)
Chain of UniProt P09874 (whole entry, looked up): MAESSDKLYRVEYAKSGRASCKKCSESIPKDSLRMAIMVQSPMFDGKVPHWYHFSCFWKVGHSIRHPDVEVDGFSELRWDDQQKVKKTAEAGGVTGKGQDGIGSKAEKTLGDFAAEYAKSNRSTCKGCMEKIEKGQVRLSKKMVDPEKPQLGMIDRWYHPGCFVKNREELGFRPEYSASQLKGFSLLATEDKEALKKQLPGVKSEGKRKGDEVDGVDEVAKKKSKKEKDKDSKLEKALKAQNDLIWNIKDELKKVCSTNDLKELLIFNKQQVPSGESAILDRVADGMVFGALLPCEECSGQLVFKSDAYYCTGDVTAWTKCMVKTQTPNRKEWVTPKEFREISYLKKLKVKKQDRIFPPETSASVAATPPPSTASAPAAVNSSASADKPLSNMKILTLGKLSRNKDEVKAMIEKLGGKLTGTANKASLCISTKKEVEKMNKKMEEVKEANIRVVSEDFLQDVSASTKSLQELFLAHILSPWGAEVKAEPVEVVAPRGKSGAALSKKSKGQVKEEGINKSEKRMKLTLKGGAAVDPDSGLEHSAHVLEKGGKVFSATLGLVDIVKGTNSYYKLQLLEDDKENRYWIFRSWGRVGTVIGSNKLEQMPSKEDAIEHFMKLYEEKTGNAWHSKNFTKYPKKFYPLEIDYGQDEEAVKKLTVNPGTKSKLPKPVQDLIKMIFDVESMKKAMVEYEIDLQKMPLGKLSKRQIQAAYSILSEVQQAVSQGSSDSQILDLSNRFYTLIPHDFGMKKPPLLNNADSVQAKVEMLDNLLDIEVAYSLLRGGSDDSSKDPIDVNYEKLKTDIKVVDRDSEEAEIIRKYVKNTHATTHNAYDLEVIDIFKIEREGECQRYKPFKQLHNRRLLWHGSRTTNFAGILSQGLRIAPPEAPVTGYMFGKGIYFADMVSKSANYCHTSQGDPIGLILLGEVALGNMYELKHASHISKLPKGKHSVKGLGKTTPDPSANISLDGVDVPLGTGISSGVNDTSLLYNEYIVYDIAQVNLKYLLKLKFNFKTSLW
ABCC1: Multidrug resistance-associated protein 1 (ABCC1, Homo sapiens, UniProt P33527)
Chain of UniProt P33527 (whole entry, looked up): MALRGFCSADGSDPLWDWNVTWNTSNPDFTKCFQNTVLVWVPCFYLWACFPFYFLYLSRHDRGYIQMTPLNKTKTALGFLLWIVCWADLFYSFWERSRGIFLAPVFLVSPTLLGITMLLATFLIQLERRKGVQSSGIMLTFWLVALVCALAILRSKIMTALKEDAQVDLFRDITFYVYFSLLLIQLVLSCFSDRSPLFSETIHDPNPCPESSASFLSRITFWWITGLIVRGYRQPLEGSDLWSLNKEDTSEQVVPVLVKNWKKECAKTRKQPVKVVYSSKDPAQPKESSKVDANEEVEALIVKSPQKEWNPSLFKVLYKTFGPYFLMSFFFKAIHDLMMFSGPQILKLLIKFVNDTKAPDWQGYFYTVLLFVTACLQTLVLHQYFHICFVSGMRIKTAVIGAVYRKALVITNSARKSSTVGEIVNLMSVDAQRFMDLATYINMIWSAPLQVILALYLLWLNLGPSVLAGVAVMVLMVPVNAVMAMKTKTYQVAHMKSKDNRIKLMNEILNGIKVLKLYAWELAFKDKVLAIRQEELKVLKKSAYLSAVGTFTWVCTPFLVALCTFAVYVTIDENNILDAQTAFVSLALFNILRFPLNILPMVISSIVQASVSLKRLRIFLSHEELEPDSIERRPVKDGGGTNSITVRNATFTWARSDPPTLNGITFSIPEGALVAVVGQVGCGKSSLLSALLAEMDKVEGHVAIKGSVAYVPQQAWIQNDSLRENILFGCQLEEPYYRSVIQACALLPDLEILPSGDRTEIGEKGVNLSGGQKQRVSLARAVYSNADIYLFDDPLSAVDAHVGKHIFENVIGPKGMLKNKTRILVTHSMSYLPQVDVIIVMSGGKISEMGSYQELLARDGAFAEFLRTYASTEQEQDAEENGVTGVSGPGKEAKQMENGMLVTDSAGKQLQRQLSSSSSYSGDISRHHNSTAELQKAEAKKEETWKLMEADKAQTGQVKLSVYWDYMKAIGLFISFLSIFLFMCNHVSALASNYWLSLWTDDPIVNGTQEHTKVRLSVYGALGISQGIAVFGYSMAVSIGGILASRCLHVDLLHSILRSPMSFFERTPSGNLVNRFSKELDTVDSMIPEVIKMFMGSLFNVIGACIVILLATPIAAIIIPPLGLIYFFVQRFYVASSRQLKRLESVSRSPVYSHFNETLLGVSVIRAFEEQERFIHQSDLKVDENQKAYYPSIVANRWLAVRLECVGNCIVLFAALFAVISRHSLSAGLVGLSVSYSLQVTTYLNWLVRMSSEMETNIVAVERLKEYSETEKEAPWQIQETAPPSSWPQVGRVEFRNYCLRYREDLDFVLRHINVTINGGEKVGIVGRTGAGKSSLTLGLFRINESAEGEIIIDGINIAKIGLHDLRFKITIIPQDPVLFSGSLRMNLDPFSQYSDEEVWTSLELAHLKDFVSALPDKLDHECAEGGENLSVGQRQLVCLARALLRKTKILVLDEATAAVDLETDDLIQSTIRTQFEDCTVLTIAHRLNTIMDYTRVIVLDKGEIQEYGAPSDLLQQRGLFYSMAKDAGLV
FAAH: Fatty-acid amide hydrolase 1 (FAAH, Homo sapiens, UniProt O00519)
Chain of UniProt O00519 (whole entry, looked up): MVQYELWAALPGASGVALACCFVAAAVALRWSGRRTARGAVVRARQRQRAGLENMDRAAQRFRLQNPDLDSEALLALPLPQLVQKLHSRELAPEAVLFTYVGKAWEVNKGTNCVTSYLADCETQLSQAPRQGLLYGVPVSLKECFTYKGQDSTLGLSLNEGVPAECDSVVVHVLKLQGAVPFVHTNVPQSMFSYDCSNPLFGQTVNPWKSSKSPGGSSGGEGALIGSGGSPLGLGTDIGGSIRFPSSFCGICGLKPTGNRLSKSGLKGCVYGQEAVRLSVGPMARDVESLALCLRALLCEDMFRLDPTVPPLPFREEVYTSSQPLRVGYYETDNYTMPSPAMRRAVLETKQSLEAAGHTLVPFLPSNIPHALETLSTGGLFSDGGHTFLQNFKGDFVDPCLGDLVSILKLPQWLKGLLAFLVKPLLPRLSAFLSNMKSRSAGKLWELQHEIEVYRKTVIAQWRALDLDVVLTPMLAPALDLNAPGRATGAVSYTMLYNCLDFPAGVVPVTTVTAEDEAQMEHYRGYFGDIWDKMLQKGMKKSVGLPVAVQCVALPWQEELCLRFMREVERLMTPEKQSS
Chain of UniProt P49841 (whole entry, looked up): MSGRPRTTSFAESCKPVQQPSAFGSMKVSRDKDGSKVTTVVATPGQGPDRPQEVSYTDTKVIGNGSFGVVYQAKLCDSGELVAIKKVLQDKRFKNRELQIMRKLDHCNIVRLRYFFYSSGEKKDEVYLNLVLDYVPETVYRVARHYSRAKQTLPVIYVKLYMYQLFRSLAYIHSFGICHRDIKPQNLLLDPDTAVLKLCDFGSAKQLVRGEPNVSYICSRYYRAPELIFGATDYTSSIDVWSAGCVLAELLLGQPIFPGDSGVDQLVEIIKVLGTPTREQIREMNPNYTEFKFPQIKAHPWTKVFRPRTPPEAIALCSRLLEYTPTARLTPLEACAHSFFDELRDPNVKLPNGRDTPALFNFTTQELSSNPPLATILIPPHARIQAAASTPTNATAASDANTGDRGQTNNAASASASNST
Chain of UniProt P10636 (whole entry, looked up): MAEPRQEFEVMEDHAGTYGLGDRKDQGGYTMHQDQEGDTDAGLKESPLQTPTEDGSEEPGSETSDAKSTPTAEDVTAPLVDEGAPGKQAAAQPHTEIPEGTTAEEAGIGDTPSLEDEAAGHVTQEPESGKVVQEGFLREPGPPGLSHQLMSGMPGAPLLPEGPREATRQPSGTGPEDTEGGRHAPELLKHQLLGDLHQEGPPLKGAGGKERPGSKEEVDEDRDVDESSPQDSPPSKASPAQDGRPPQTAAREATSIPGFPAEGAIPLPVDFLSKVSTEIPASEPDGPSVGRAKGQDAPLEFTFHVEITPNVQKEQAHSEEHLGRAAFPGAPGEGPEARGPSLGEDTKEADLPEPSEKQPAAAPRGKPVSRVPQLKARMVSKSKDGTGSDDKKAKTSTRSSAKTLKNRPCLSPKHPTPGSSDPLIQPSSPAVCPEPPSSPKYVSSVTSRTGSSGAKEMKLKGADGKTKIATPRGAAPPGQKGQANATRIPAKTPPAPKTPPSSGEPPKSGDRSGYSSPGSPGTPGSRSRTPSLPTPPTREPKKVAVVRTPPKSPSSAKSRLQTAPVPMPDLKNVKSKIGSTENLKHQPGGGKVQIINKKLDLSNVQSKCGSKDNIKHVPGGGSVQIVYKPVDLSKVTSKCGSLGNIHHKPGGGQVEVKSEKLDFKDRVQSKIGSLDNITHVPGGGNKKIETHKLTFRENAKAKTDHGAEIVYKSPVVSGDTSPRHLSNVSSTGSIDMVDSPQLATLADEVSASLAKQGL
Chain of UniProt P04798 (whole entry, looked up): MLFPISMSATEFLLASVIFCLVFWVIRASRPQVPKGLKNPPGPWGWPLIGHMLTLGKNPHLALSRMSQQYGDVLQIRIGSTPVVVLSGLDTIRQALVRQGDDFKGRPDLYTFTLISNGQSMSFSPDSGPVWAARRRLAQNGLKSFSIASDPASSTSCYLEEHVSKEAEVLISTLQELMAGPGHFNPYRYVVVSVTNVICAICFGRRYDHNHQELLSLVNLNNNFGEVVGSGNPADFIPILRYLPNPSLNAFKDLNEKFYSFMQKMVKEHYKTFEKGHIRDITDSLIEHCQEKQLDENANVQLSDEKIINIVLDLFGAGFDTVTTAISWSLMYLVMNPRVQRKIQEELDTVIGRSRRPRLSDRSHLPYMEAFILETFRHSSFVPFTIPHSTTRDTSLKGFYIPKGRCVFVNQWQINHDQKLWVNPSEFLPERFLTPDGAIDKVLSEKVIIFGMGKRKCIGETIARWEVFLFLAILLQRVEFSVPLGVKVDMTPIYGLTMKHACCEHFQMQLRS
Chain of UniProt P28074 (whole entry, looked up): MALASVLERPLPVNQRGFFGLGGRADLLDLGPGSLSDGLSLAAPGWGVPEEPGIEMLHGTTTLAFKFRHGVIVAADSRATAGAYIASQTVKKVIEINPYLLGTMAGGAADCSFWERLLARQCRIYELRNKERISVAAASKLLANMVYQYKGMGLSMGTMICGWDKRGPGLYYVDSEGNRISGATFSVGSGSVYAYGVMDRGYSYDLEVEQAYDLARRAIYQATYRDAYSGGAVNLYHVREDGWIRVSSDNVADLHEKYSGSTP

Compound | target | test | test system | conditions | IC50
Cn1nc2c3c(cccc31)C(=O)c1ccccc1-2 | Proteasome Macropain subunit MB1 (PSMB5, Homo sapiens, UniProt P28074) | enzyme activity | – | together with: Suc-LLVY-AMC substrate, ATP | > 30000 nM
COc1cccc2cc(-c3nnc(SCC(=O)Nc4ccc(Br)cc4)n3-c3ccccc3)oc12 | fungal tyrosinase | enzyme activity, inhibitor, dopachrome absorbance | – | pH 6.8, 37 °C, together with: L-tyrosine substrate | 1080 ± 4090 nM
CS(=O)(=O)c1ccc(-c2nn(-c3ccc(C#N)cc3)cc2C(=O)Nc2cccc(F)c2)cc1 | Retinal dehydrogenase 2 (ALDH1A2, Homo sapiens, UniProt O94788) | enzyme activity, inhibitor, absorbance | – | – | 540 nM
COc1cc(CCC(=O)CC(=O)CCc2ccc(O)c(OC)c2)ccc1O | Hsd3b1 (Rattus norvegicus, UniProt P22071) | enzyme activity, inhibitor | rat testicular microsomes | lower bound from 100 µM screen, together with: pregnenolone | ≥ 100000 nM
CC(=O)c1ccc(NC(=O)CSc2nc3ccccc3c(=O)n2-c2ccccc2)cc1 | PARP1 | enzyme activity, inhibitor, absorbance | – | – | 216 nM
CN1CCC2(CC1)c1ccccc1N(Cc1ccc(C(=O)NO)s1)C2c1cccc(Cl)c1 (stereo not drawn) | Histone deacetylase 8 (Schistosoma mansoni, UniProt A5H660) | enzyme activity, inhibitor, Fluor-de-Lys | – | varied substrate concentration, together with: Fluor-de-Lys substrate 50 µM | 370 ± 130 nM
CC1=NN(c2cccc(C(=O)O)c2)C(=O)/C1=C\c1ccc(-c2ccc(Cl)c(C(=O)NC3CCOCC3)c2)o1 | DNA repair protein complementing XP-A cells (Homo sapiens, UniProt P23025) | binding to cisplatin-DNA, EMSA | – | full-length XPA | > 25000 nM
CC1=C(COc2ccc(C#N)cc2)C(=O)c2ccccc2C1=O | Thioredoxin reductase 1, cytoplasmic (TXNRD1, Homo sapiens, UniProt Q16881) | enzyme activity, inhibitor | – | pH 7.4, with preincubation | 1500 nM
CS(=O)(=O)OC[C@@H]1COc2c(cccc2C(N)=O)O1 | PARP1 | – | – | – | > 5000 nM
O=c1[nH]c(=O)c2cc(S(=O)(=O)Nc3ccc(-c4ccncc4)cc3)ccc2[nH]1 | N-acyl-phosphatidylethanolamine-hydrolyzing phospholipase D (Homo sapiens, UniProt Q6IQ20) | enzyme activity | – | wild type | 46200 ± 1600 nM
COc1cc2nc(NCc3ccc(CNCCCN4CCCCC4)cc3)nc(NC3CCNCC3)c2cc1OC | C-X-C chemokine receptor type 4 (CXCR4, Homo sapiens, UniProt P61073) | ligand displacement, radioligand | – | cell membranes | 87.8 nM
COc1cc(C(=O)NS(=O)(=O)c2ccccc2C)ccc1Cc1cn(C)c2ccc(NC(=O)OC3CCCC3)cc12 | Heat shock cognate 71 kDa protein (Bos taurus, UniProt P19120) | ATPase activity, inhibitor | – | – | 106000 nM
OCCN1CCN(CCC=C2c3ccccc3Sc3ccc(C(F)(F)F)cc32)CC1 | Ubiquitin carboxyl-terminal hydrolase 2 (USP2, Homo sapiens, UniProt O75604) | – | – | – | > 114000 nM
COc1ccc([C@H](CC(=O)O)N2CCN(CCCc3ccc4c(n3)NCCC4)C2=O)cn1 | Integrin alpha-V/beta-3 (Homo sapiens, UniProt P05106+P06756) | vitronectin binding, inhibitor, ELISA | – | – | 2.8 ± 3.4 nM
O=c1[nH]c2ccccc2n1C1CCN(CCCC(c2ccc(F)cc2)c2ccc(F)cc2)CC1 | ABCC1 | transporter efflux, inhibitor | – | – | 7700 nM
CCCCNNC(=O)c1ccc(Br)cc1 | Histone deacetylase 3 (HDAC3, Homo sapiens, UniProt O15379) | enzyme activity, inhibitor | – | – | 190 nM
COc1ccc(C(=O)OCc2ccccc2)cc1 | FAAH | enzyme activity, inhibitor, fluorescence | – | with preincubation | > 100000 nM
O=C(O[C@@H]1Cc2c(O)cc(O)cc2O[C@@H]1c1cc(O)c(=O)c2c(O)c(O)cc([C@H]3Oc4cc(O)cc(O)c4C[C@H]3O)c2c1)c1cc(O)c(O)c(O)c1 | Cell division cycle 7-related protein kinase, with DBF4 (CDC7, Homo sapiens, UniProt O00311) | enzyme activity, inhibitor, ADP-Glo luminescence | – | together with: ATP 12.5 µM | 4270 ± 530 nM
[11CH3]Nc1ccc(-c2nc3ccc(O)cc3s2)cc1 | Microtubule-associated protein tau (MAPT, Homo sapiens, UniProt P10636) | ligand displacement, radioligand | – | – | ≤ 324 nM and 324 nM
O=C(Nc1cc(Cl)c(F)c(Cl)c1)c1cc(S(=O)(=O)N2CCOCC2)c(Cl)cc1Cl | Lysophosphatidic acid receptor 3 (LPAR3, Homo sapiens, UniProt Q9UBY5) | Ca2+ mobilization, antagonist | RH7777 | together with: LPA at EC50 | > 100000 nM

Compound | target | test | test system | conditions | IC50
C=C(C)CCOP(=O)(O)OP(=O)(O)OP(=O)(O)OC[C@H]1O[C@@H](n2cnc3c(N)ncnc32)[C@H](O)[C@@H]1O | Mitogen-activated protein kinase kinase kinase 5 (MAP3K5, Homo sapiens, UniProt Q99683) | enzyme activity, inhibitor, HotSpot kinase | – | together with: ATP 1 µM | 3400 nM
O=C(NCc1ccc(F)cc1)C1CCN(S(=O)(=O)c2cc(Cl)cc(Cl)c2)CC1 | Na(+)/citrate cotransporter (Homo sapiens, UniProt Q86YT5) | citrate uptake, inhibitor | HepG2 | 30 min uptake, no preincubation, together with: 10 mM LiCl | ~500 nM
CC(C)Oc1c(Cl)cc(Cl)cc1CN[C@H]1CCCN(c2nc3nc(Cl)ccc3[nH]2)C1 | Methionyl-tRNA synthetase, putative (Trypanosoma brucei brucei, UniProt Q38C91) | enzyme activity, inhibitor | – | – | > 300 nM
Cc1nc2ccc(NC(=O)CCNC(=O)CCCc3ccc(CC(C(=O)O)C(=O)O)cc3)cc2s1 | L-lactate dehydrogenase B chain (LDHB, Homo sapiens, UniProt P07195) | inhibitor, NADH fluorescence | – | NADH competition, together with: 1440 µM pyruvate, 40 µM NADH | 3600 ± 400 nM
Cn1c(=O)c(=O)n(C)c2cc(S(=O)(=O)NNC(=O)NC(=O)c3ccccc3)ccc21 | Dipeptidyl peptidase 4 (DPP4, Homo sapiens, UniProt P27487) | enzyme activity, inhibitor, fluorescence | – | – | 0.144 nM
COc1ccc(Cn2cc(CNC(=O)OCc3cn(Cc4cccc(OC)c4)nn3)nn2)cc1 | FAAH | enzyme activity, inhibitor, fluorescence | – | cell membranes | 9.4 nM
O=C(O)c1ccc(O)cc1 | FAAH | enzyme activity, inhibitor, fluorescence | – | with preincubation | > 100000 nM
CCOc1cc2ncc(C#N)c(Nc3ccc(OCc4ccccn4)c(Cl)c3)c2cc1NC(=O)/C=C/CN(C)C | Equilibrative nucleoside transporter 1 (SLC29A1, Homo sapiens, UniProt Q99808) | transporter uptake, inhibitor, radiometric | – | – | 8500 nM
CN1CCN(C[C@@H]2COc3cccc(C(N)=O)c3O2)CC1 | PARP1 | – | – | – | > 5000 nM
O=C(O)[C@H]1NCC[C@@H]1[C@@H](C(=O)O)c1ccccc1 | AMPA receptor, rat | binding | cortical synaptosomes | together with: [3H]-AMPA | > 100000 nM
C#Cc1ccc2c(C(F)(F)F)cc(=O)oc2c1 | Cytochrome P450 1A2 (CYP1A2, Homo sapiens, UniProt P05177) | enzyme activity, inhibitor | – | 6 min, pH 7.6 | 2690 nM
O=c1cc(N2CCOCC2)oc2c(OCc3ccccc3)cccc12 | Phosphatidylinositol 4,5-bisphosphate 3-kinase catalytic subunit beta isoform (PIK3CB, Homo sapiens, UniProt P42338, D862Q) | enzyme activity, inhibitor | – | – | 200 nM
CN1CCN(C[C@H]2COc3c(cccc3C(N)=O)O2)CC1 | PARP1 | – | – | – | > 5000 nM
CC(=O)N1C(=O)Cc2ccccc21 | mbtI (Mycobacterium tuberculosis, UniProt P9WFX1) | enzyme activity, inhibitor, continuous fluorescence | – | together with: chorismate | > 200000 nM
CN1CCN(C2=Nc3ccccc3Oc3ccc(Cl)cc32)CC1 | ABCC1 | substrate efflux, inhibitor, flow cytometry | ABCC1-overexpressing SupT1-Vin cells | together with: BODIPY-FL-thapsigargin 100 nM | 15500 ± 5800 nM
[Cl-].[Cl-].[Zn+2] | Voltage-gated hydrogen channel 1 (HVCN1, Homo sapiens, UniProt Q96D96, D130H) | proton current, inhibitor, whole-cell voltage clamp | human cells | pH 6.5, test pulse 120 mV | 3000 nM
CC(C)NCc1ccc(C[C@@H]2NC(=O)[C@@H](N(C)C(=O)c3ccc4ccccc4c3)NC(=O)[C@H](Cc3ccccc3)NC(=O)[C@H](N)CSSC[C@@H](C(=O)N[C@@H](Cc3ccc4ccccc4c3)C(N)=O)NC(=O)[C@H](Cc3ccccc3)NC2=O)cc1 | Somatostatin receptor type 5 (SSTR5, Homo sapiens, UniProt P35346) | ligand displacement, radioligand | – | cell membranes | 181 nM
C#Cc1ccc2cc(-c3ccccc3)c(=O)oc2c1 | Cytochrome P450 1A1 (CYP1A1, Homo sapiens, UniProt P04798) | enzyme activity, inhibitor, fluorescence | – | 6 min, pH 7.6 | 630 nM
COc1ccc(-c2cc(=O)c3c(OC)c([C@@H]4O[C@H](C(=O)NCCC(F)(F)F)[C@@H](O)[C@H](O)[C@H]4O)c(OC)cc3o2)cc1OC | Glycogen synthase kinase-3 beta (GSK3B, Homo sapiens, UniProt P49841) | enzyme activity, inhibitor, ADP detection | – | – | < 20000 nM and 17200 nM

A few entries again:
Compound | target | test | test system | conditions | IC50
COc1ccc(Cn2cc(CNC(=O)OCc3cn(Cc4cccc(OC)c4)nn3)nn2)cc1 | FAAH | enzyme activity, inhibitor, fluorescence | – | cell membranes | 9.4 nM
CC1=C(COc2ccc(C#N)cc2)C(=O)c2ccccc2C1=O | Thioredoxin reductase 1, cytoplasmic (TXNRD1, Homo sapiens, UniProt Q16881) | enzyme activity, inhibitor | – | pH 7.4, with preincubation | 1500 nM
